Assay results pooled from the literature.
Each line is one published result; not all experiments were run side by side.
Organism: Pseudomonas aeruginosa

With `CCCCN(CCCC)CC(O)COc1c2ccoc2c(OC)c2oc(CC)cc(=O)c12` (stereo not drawn) the MIC was > 256 µg/mL (broth microdilution; ATCC 15442; 19 h, 35 °C).
For `CC[C@@H](C)[C@@H](NC(=O)[C@@H](C)NC(=O)[C@@H](CCCCN)NC(=O)[C@@H](CC(C)C)NC(=O)[C@@H](CC(C)C)NC(=O)[C@H](NC(=O)[C@@H](CCCCN)NC(=O)[C@@H](CC(C)C)NC(=O)[C@@H](C)NC(=O)[C@@H](CCCCN)NC(=O)[C@@H](CCCCN)NC(=O)[C@@H](CCCCN)NC(=O)[C@@H](C)NC(=O)[C@@H](CCCCN)NC(=O)[C@@H](CO)NC(=O)[C@@H](Cc1ccccc1)NC(=O)[C@H](NC(=O)[C@@H](CCCCN)NC(=O)[C@@H](CC(C)C)NC(=O)[C@@H](Cc1ccccc1)NC(=O)[C@@H](CO)NC(=O)[C@@H](CCCCN)NC(=O)[C@@H](Cc1c[nH]c2ccccc12)NC(=O)[C@@H](CCCCN)NC(C)=O)[C@H](C)O)[C@H](C)O)C(=O)N[C@H](CO)C(=O)N[C@H](CCCCN)C(N)=O`, the MIC was 5.1 µM (broth microdilution; M2; 24 h, 37 °C).
For `CNC(C)C1CCC(N)C(OC2C(N)CC(N)C(OC3OCC(C)(O)C(NC)C3O)C2O)O1` (stereo not drawn), the MIC was 2 µM (broth microdilution; PL1 clinical isolate; 18 h, 37 °C).
The MIC of `COc1ccc2c(c1)C=[N+]1C3CCCCC3[N+]3=Cc4c(ccc5ccc(OC)cc45)[O][Au-]13[O]2.F[P-](F)(F)(F)(F)F` (stereo not drawn) is reported as > 20 µM (bacterial growth, broth microdilution; carbapenem-resistant clinical isolate; 24 h).
`O=C(NCCNCCO)c1cn(Cc2ccccc2)c2c(Cl)c(OCc3ccc(C(F)(F)F)cc3)c(Cl)cc2c1=O` gave an MIC of > 32 µg/mL (ATCC 27853; ≥80% growth inhibition).
For `NCC1OC(OC2C(N)CC(N)C(OC3OC(CO)C(O)C(N)C3O)C2OCCCCCCCCCCCCn2cc(CNc3nc(NCc4cn(CCCCCCCCCCCCOC5C(OC6OC(CN)C(O)CC6N)C(N)CC(N)C5OC5OC(CO)C(O)C(N)C5O)nn4)nc(NCc4cn(CCCCCCCCCCCCOC5C(OC6OC(CN)C(O)CC6N)C(N)CC(N)C5OC5OC(CO)C(O)C(N)C5O)nn4)n3)nn2)C(N)CC1O` (stereo not drawn), the MIC was 32 µg/mL (PAO1, CAMHB).
`COc1ccc2ccc3c(c2c1)C=[N+]1C2CCCCC2[N+]2=Cc4ccc(-c5ccccc5)cc4[O][Au-]21[O]3.F[P-](F)(F)(F)(F)F` (stereo not drawn) gave an MIC of > 20 µM (bacterial growth, broth microdilution; carbapenem-resistant clinical isolate; 24 h).
For `CSCC[C@H](NC(=O)[C@H](CCCNC(=N)N)NC(=O)[C@H](Cc1c[nH]c2ccccc12)NC(=O)[C@H](CCC(N)=O)NC(=O)[C@H](Cc1c[nH]c2ccccc12)NC(=O)[C@H](CCCNC(=N)N)NC(=O)[C@@H](N)CCCNC(=N)N)C(=O)N[C@@H](CCCCN)C(=O)N[C@@H](CCCCN)C(=O)N[C@@H](CC(C)C)C(=O)NCC(=O)NCCCC[C@H](NC(=O)CNC(=O)[C@H](CC(C)C)NC(=O)[C@H](CCCCN)NC(=O)[C@H](CCCCN)NC(=O)[C@H](CCSC)NC(=O)[C@H](CCCNC(=N)N)NC(=O)[C@H](Cc1c[nH]c2ccccc12)NC(=O)[C@H](CCC(N)=O)NC(=O)[C@H](Cc1c[nH]c2ccccc12)NC(=O)[C@H](CCCNC(=N)N)NC(=O)[C@@H](N)CCCNC(=N)N)C(=O)NCCCCCC(=O)N[C@@H](CSSC[C@H](NC(=O)CCCCCNC(=O)[C@H](CCCCNC(=O)CNC(=O)[C@H](CC(C)C)NC(=O)[C@H](CCCCN)NC(=O)[C@H](CCCCN)NC(=O)[C@H](CCSC)NC(=O)[C@H](CCCNC(=N)N)NC(=O)[C@H](Cc1c[nH]c2ccccc12)NC(=O)[C@H](CCC(N)=O)NC(=O)[C@H](Cc1c[nH]c2ccccc12)NC(=O)[C@H](CCCNC(=N)N)NC(=O)[C@@H](N)CCCNC(=N)N)NC(=O)CNC(=O)[C@H](CC(C)C)NC(=O)[C@H](CCCCN)NC(=O)[C@H](CCCCN)NC(=O)[C@H](CCSC)NC(=O)[C@H](CCCNC(=N)N)NC(=O)[C@H](Cc1c[nH]c2ccccc12)NC(=O)[C@H](CCC(N)=O)NC(=O)[C@H](Cc1c[nH]c2ccccc12)NC(=O)[C@H](CCCNC(=N)N)NC(=O)[C@@H](N)CCCNC(=N)N)C(N)=O)C(N)=O`, the MIC was 15 µM (broth microdilution; ATCC 27853; 24 h, 37 °C).
`C=CCOC(=O)c1ccc(NC(=O)c2ccc(NC(=O)c3ccc(NC(=O)C(CC(N)=O)NC(=O)c4ccc(NC(=O)c5ccc([N+](=O)[O-])cc5)cc4)cc3)c(OC(C)C)c2OCC=C)cc1` (stereo not drawn) has an MIC of > 64 µg/mL (microbial growth; PA14).

Excerpt of the above:
The MIC of `COc1ccc2c(c1)C=[N+]1C3CCCCC3[N+]3=Cc4c(ccc5ccc(OC)cc45)[O][Au-]13[O]2.F[P-](F)(F)(F)(F)F` (stereo not drawn) is reported as > 20 µM (bacterial growth, broth microdilution; carbapenem-resistant clinical isolate; 24 h).
